Experimental data pooled from the literature.
Every numbered part comes from another study and shows a few of its results, in no order.

Study 1
Target: Sal-like protein 4, full length isoform A (SALL4, Homo sapiens, UniProt Q9UJQ4, residues 1-1053)
Chain of UniProt Q9UJQ4 (whole entry, looked up): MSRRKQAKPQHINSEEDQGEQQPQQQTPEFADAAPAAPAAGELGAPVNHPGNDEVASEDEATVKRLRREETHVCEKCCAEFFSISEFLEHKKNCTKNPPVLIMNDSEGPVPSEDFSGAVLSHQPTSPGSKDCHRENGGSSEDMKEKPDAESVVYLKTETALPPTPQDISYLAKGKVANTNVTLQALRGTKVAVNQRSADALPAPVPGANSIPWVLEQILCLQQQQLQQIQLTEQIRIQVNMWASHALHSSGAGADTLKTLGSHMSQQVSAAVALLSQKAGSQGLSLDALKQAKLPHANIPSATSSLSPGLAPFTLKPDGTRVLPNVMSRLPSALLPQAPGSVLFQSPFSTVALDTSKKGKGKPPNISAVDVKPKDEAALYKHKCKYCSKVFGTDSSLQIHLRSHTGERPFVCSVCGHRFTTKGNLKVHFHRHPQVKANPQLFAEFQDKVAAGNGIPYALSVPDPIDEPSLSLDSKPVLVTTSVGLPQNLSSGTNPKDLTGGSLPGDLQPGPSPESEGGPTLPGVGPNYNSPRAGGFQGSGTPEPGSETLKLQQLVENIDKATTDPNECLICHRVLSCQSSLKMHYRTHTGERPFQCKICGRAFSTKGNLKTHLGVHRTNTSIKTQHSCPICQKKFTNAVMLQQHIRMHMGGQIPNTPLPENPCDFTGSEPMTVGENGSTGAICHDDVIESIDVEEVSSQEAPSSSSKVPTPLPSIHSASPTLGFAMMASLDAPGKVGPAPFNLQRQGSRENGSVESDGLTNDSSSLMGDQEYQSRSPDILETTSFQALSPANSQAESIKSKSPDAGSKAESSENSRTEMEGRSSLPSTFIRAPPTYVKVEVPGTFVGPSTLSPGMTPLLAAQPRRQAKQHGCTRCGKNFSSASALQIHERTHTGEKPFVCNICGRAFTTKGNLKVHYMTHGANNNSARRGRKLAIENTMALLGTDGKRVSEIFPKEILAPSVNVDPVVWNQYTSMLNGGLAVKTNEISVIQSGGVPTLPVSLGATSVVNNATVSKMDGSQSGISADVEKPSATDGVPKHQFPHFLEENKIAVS
Method: universal PBM
Molecule type: double-stranded DNA, one strand shown
Sample: in vitro
Concentration: 600 nM
Setting: 8-mer, flanks averaged, mean of replicates
Direction: higher = stronger binding
Endpoint: E-score
ATTTGCAC: 0.159
ACGTTGCA: -0.0178
TTTAGAAA: 0.292
ACCCTGTC: -0.16
GACAGAAA: 0.173
AGAACGAG: 0.0542
CGATACAA: 0.17
AGTGAGAA: 0.105
GCATCCAC: -0.13
CCTGCTAG: -0.162
CCGGTAAC: -0.174
ATCCCACA: 0.0163
AGCGGTCC: -0.247
ACACTGCT: -0.0709
ATGTAGTC: 0.195
ATTGCCAC: 0.101
GTTGTAGA: 0.175
TTGACAAA: 0.309
AGCCATTC: -0.0711
AGCAACGC: -0.0618
AGTAATTA: 0.36
AAGCGAGG: -0.0922
ACTGCACA: -0.0403
ACGAGTTA: 0.161
AATGCTCA: 0.125

Study 2
Target: Histone acetyltransferase KAT6A, winged helix 1, GST fusion (KAT6A, Homo sapiens, UniProt Q92794, residues 1-85)
Method: protein binding microarray
Molecule type: double-stranded DNA, one strand shown
Sample: in vitro
Concentration: not given
Setting: 8-mer, flanks averaged, mean of 2 arrays, mostly near background
Relative to: not given
Direction: higher = stronger binding
Endpoint: E-score
Residues (chain): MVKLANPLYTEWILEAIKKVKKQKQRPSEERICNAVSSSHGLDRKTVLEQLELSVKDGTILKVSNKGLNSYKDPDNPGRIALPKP
CTCAGTTA: -0.0779
AGTATATA: 0.0197
CTCACCTA: -0.0955
CGCTAAAC: 0.233
AAAGCCTT: -0.126
CCTAAGTC: -0.186
CTGGCAAA: -0.241
ATAGGAAC: -0.149
AAGCGTTG: 0.0239
GATAGTCA: -0.0201
CCGCTACA: 0.262
ATAGATGA: -0.187
TGTGCACA: -0.0289
ACACTCCC: -0.00279
GCACACCA: -0.103
GCTTCGCC: 0.228
GCACAGAC: 0.026
GGTCAGCA: -0.0849
AATCTTCC: -0.0078
GGCGACAA: 0.0696
CCAACAAA: -0.142
ACAAGCCC: -0.0274
TACTTTAA: -0.067
AATGTTGC: -0.0494
CTGTAGAA: -0.299

Study 3
Target: UBE2G2 UBC core domain (UniProt P60604)
Method: yeast two-hybrid
Sample: yeast
Setting: mostly zero background
Relative to: not given
Direction: higher = stronger interaction
Endpoint: lacZ reporter activity
B1: TRIM15 RING domain (UniProt Q9C019); chain SLKVVHELPACTLCAGPLEDAVTIPCGHTFCRLCLPALSQMGAQSSGKILLCPLCQEEEQAETPMA
B2: RNF32 RING domain (UniProt Q9H0A6); chain SLLQGDSVQPCPICKEEFELRPQVLLSCSHVFHKACLQAFEKFTNKKTCPLCRKNQYQTRVIH
B3: PEX2 RING domain (UniProt P28328); chain DNTLATSGKECALCGEWPTMPHTIGCEHIFCYFCAKSSFLFDVYFTCPKCGTEVHSLQPLK
B4: RNF4 RING domain (UniProt P78317); chain TGLRPSGTVSCPICMDGYSEIVQNGRLIVSTECGHVFCSQCLRDSLKNANTCPTCRKKINHKRYHP
B5: TRIM38 RING domain (UniProt O00635); chain STKKMMEEATCSICLSLMTNPVSINCGHSYCHLCITDFFKNPSQKQLRQETFCCPQCRAPFHMDSLRP
B6: NSMCE1 RING domain (UniProt Q8WV22); chain RETYPDAVKICNICHSLLIQGQSCETCGIRMHLPCVAKYFQSNAEPRCPHCNDYWPHEIPKV
B7: TRIM3 RING domain (UniProt O75382); chain VQPMDKQFLVCSICLDRYQCPKVLPCLHTFCERCLQNYIPAQSLTLSCPVCRQTSILPEQGV
B8: RNF150 RING domain (UniProt Q9ULK6); chain DKETESDFDNCAVCIEGYKPNDVVRILPCRHLFHKSCVDPWLLDHRTCPMCKMNILKALGIP
Construct (chain): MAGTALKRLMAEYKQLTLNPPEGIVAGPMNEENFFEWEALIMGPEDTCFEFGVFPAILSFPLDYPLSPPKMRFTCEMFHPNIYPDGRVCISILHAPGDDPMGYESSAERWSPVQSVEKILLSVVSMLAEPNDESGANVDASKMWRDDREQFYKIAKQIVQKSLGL
B1 (TRIM15 RING domain): 0
B2 (RNF32 RING domain): 0
ISNDSETLEECMVCSDMKRDTLFGPCGHIATCSLCSPRVKKCLICKEQVQSRTKIE (MIB1 RING domain (UniProt Q86YT6)): 0
B3 (PEX2 RING domain): 0
B4 (RNF4 RING domain): 2150
B5 (TRIM38 RING domain): 0
B6 (NSMCE1 RING domain): 0
KRQCSDVDDICSICQAEFQKPILLICQHIFCEECMTLWFNREKTCPLCRTVISDHINKW (RNFT1 RING domain (UniProt Q5M7Z0)): 0
KIKDLNEHIVCCLCAGYFVDATTITECLHTFCKSCIVKYLQTSKYCPMCNIKIHETQPLL (PCGF1 RING domain (UniProt Q9BSM1)): 0
B7 (TRIM3 RING domain): 11800
B8 (RNF150 RING domain): 0
MANWVFCNRCFQPPHRTSCFSLTNCGHVYCDACLGKGKKNECLICKAPCRTVLLSK (RNF212 RING domain (UniProt Q495C1)): 0

Study 4
Target: Centromere-binding protein 1, full length, His-tagged (CBF1, Saccharomyces cerevisiae, UniProt P17106, residues 1-351)
Chain of UniProt P17106 (whole entry, looked up): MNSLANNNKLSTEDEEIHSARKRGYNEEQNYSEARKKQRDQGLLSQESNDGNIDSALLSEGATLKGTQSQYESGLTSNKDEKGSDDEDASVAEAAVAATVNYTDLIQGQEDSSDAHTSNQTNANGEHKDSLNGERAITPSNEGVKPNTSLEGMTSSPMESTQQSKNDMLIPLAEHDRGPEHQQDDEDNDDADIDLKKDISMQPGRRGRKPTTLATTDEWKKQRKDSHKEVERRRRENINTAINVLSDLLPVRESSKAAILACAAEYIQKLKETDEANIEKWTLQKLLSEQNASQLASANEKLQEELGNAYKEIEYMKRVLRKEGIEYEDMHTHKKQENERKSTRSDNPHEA
Method: competition protein-binding microarray
Molecule type: double-stranded DNA, one strand shown
Sample: in vitro
Concentration: 2 µM
Setting: whole 60-bp probe, lowest competitor level
With: Pho4 competitor, 0.05 µM
Direction: higher = stronger binding
Endpoint: fluorescence intensity
Constant ends, left off below: … GTCTTGATTCGCTTGACGCTGCTG
TGAAAAGTTACGGATCAGGCTTTAACCACCGTAGAC: 66.5 a.u.
AAATTACTAAGTTTTCACGTGAGCTACCCCGTATGA: 1180 a.u.
CTAACGAAGGTTTGTAAAGTGGGTGACAAGCCAAGT: 75.8 a.u.
TGTGAGGAACAAGCCCACATGTTGAGTTTAAGATGG: 106 a.u.
CCTACCATTGCATCGGGCGTGATGGTACACCAACCA: 81.1 a.u.
CGCTCGTCTTGGTGGCATGCGCTTTTTTTTTCTTGG: 84.5 a.u.
TTGGCCGGGTCTTGTCACGTGAAGAGAGAAATTCGG: 6500 a.u.
TGCGCAACAACTTGAGGGGTGGGTGTATGTCTAGAA: 67.8 a.u.
ATTTTTCCTGTCCTGCAATTGTTCTCGAGGATTGCT: 70.8 a.u.
ACCGTTGGTAGAAGCATCGTGGGTAGAAATGGTGGA: 75.8 a.u.
CATCCGCACATCGCGCATGTGTGGGTGTATATGCCC: 76.7 a.u.
ACCTTTGGAACTCACCAGGTGATATATTCATCAGCA: 150 a.u.
AAAGCGGTAATTTGTTAAGTGGGTGCAGATATCTAT: 82.6 a.u.
CTAACGAAGGTTTGAGACGTGGGTGACAAGCCAAGT: 65.2 a.u.
CCGGCCCGGAATATACGCGTGGTCGCGCTCTTTCGG: 75.3 a.u.
CACTAGCTCGGTTTAGTTGTGACGGGTCTGCTGTAC: 60.3 a.u.
CTAACGAAGGTTTGTCACCGGACTTACAAGCCAAGT: 82 a.u.
CTTCTGTAAATTTGTCGTGTGGGTGGACGCGCCCCG: 68.2 a.u.
GAAAGAGTGGCTTATCATGTGTAATAGGCGAATAAG: 125 a.u.
CACAAGGCCCAATCAATGGTGGTATCGAAGTTACAT: 81 a.u.
TCTTTACCTTTGTTCCACGTGTCGGTCCGTACAATT: 668 a.u.
GACCAGCCGCACCGTCACGTGACGGTATACGATCCT: 15400 a.u.
GCATCCACAACCGCTCTCGTGGAACCAAACGAAGAT: 67.8 a.u.
TAAGGGCCAGGATGACAGGTGATGCTGCTTGCATTT: 79 a.u.
CTTTCCCGATCTTTTCACGTGACTTTAGCACATTTG: 7580 a.u.

Excerpt of the above (study 4):
TGCGCAACAACTTGAGGGGTGGGTGTATGTCTAGAA: 67.8 a.u.
GAAAGAGTGGCTTATCATGTGTAATAGGCGAATAAG: 125 a.u.
CATCCGCACATCGCGCATGTGTGGGTGTATATGCCC: 76.7 a.u.
ATTTTTCCTGTCCTGCAATTGTTCTCGAGGATTGCT: 70.8 a.u.
CCTACCATTGCATCGGGCGTGATGGTACACCAACCA: 81.1 a.u.
TGTGAGGAACAAGCCCACATGTTGAGTTTAAGATGG: 106 a.u.
TAAGGGCCAGGATGACAGGTGATGCTGCTTGCATTT: 79 a.u.
CTAACGAAGGTTTGAGACGTGGGTGACAAGCCAAGT: 65.2 a.u.
CCGGCCCGGAATATACGCGTGGTCGCGCTCTTTCGG: 75.3 a.u.
CACAAGGCCCAATCAATGGTGGTATCGAAGTTACAT: 81 a.u.
GCATCCACAACCGCTCTCGTGGAACCAAACGAAGAT: 67.8 a.u.
